Measurements gathered from unrelated publications.
Lines come from different studies, so protocols differ. ± marks the error that the study gave.

SMILES	test	test system	conditions	half-life [min]
CC[C@H](C)[C@@H]1NC(=O)[C@H](Cc2ccc(O)cc2)NC(=O)[C@@H](N)CSCSC[C@@H](C(=O)N2CCC[C@H]2C(=O)N[C@@H](CC(C)C)C(=O)NCC(N)=O)NC(=O)[C@H](CC(N)=O)NC(=O)[C@H](CCC(N)=O)NC1=O		phosphate buffer	0.1 mg/mL, pH 2.0, 40 °C	38900 ± 576
Cc1cccc(-c2nc(Nc3ccncn3)c3sccc3n2)n1		mouse liver microsomes		< 3
CC(C)C(N)C(=O)OCC(=O)C1(O)CCC2C3CCC4=CC(=O)C=CC4(C)C3C(O)CC21C (centres unmarked)		SIRC cell homogenate	pH 7.4, 37 °C	16.6 ± 0.2
C=CCc1ccc(OC(=O)COC(=O)Cn2cnc3c2c(=O)n(C)c(=O)n3C)c(OC)c1		phosphate buffer	75 µM, pH 7.4, 37 °C	678
CSCC[C@H](NC(=O)CNC(=O)CNC(=O)[C@H](CO)NC(=O)[C@H](CC(C)C)NC(=O)[C@@H]1CCCN1C(=O)[C@H](CO)NC(=O)[C@H](CC(N)=O)NC(=O)[C@H](CC(C)C)NC(=O)[C@H](C)NC(=O)[C@@H](NC(=O)[C@H](CC(C)C)NC(=O)[C@H](Cc1c[nH]cn1)NC(=O)[C@H](CC(C)C)NC(=O)[C@@H](NC(=O)[C@@H]1CCCN1C(=O)[C@H](CCC(N)=O)NC(=O)[C@H](Cc1ccccc1)NC(=O)[C@H](CC(=O)O)NC(=O)[C@H](CCCNC(=N)N)NC(=O)[C@H](Cc1c[nH]cn1)NC(=O)[C@H](CO)NC(=O)[C@H](Cc1c[nH]cn1)NC(=O)[C@H](CCSC)NC(=O)[C@H](CC(=O)O)NC(=O)CNC(=O)[C@H](CCCNC(=N)N)NC(=O)[C@H](CC(=O)O)NC(=O)CNC(=O)[C@@H](N)CCCNC(=N)N)C(C)C)C(C)C)C(N)=O	metabolic stability	SD rat liver homogenate	20 µg/mL, 37 °C	2.07 ± 0.022
Cc1ccc2nc(C)c(C(=O)NCc3ccc(C(F)(F)F)cc3)n2c1		rat liver microsomes		29
CC(=O)N[C@@H](Cc1ccc(O)cc1)C(=O)N[C@@H](CC(=O)O)C(=O)NCCC(=O)N[C@@H](Cc1ccccc1)C(=O)N[C@@H](Cc1ccc(O)cc1)C(=O)NCCC(=O)N[C@@H](Cc1ccc(O)cc1)C(=O)N[C@H](C(=O)N[C@H](C(=O)N[C@@H](Cc1ccccc1)C(=O)N[C@@H](Cc1c[nH]cn1)C(=O)N[C@H](C(=O)N[C@@H](C)C(=O)N[C@H](C(N)=O)[C@@H](C)O)C(C)C)[C@@H](C)O)C(C)C	LC-MS	human serum	10 µM, 37 °C	31.8
C#Cc1c(F)ccc2cc(O)cc(-c3ncc4c(N5CC6CCC(C5)N6C(=O)OC(C)OC(=O)CCCC)nc(OC[C@@]56CCCN5C[C@H](F)C6)nc4c3F)c12 (some centres unmarked)		mouse whole blood	1 µM	3.83
Cc1ccc(OCCN(C)C)cc1C(=O)N[C@H](C)c1cc(-c2cnn(C)c2)cc(-c2cnn(C(F)F)c2)c1		mouse liver microsomes		76.7
N#Cc1ccc(NC(=O)c2cccnc2)cc1Cl	plasma stability	mouse plasma	5 µM, 37 °C	> 120
Cn1c(=O)c2cc(C(=O)NCCCN3CCCCCC3)sc2c2ccccc21		human liver microsomes		> 159
O=C(NC12CC3CC(CC(C3)C1)C2)c1cc2cc(Cl)ccc2[nH]1		human liver microsomes		> 30
CC(=O)N[C@@H](Cc1ccc(O)cc1)C(=O)N[C@@H](CCCNC(=N)N)C(=O)N[C@@H](Cc1ccccc1)C(=O)N[C@H]1CCC[C@@H]1C(=O)N[C@@H](CCCNC(=N)N)C(=O)N[C@@H](CC(N)=O)C(=O)N[C@H]1CCC[C@@H]1C(=O)N[C@H](C(=O)N[C@@H](Cc1ccccc1)C(=O)N[C@H]1CCC[C@@H]1C(=O)N[C@@H](Cc1ccccc1)C(=O)N[C@@H](Cc1ccc(O)cc1)C(=O)N[C@H]1CCC[C@@H]1C(=O)N[C@H](C(=O)N[C@@H](CC(=O)O)C(N)=O)[C@@H](C)O)C(C)C	LC-MS	human serum	10 µM, 37 °C	144
CCCCCc1cc(OC(=O)C(NC(=O)CCC(=O)O)C(C)C)c2c(c1)OC(C)(C)C1CCC(C)=CC21 (centres unmarked)		Cremophor RH 40 in isotonic phosphate buffer	pH 7.3, 25 °C	93600
COc1ccc(CCNc2cc(-c3ccccc3)nc3ncnn23)cc1		human liver microsomes		24.8
Nc1nc2c(ncn2COCCOC(=O)CCC(=O)OC[C@H](N)C(=O)O)c(=O)[nH]1	substrate	rabbit cornea homogenate	0.133 mM, pH 7.4, 34 °C	210 ± 24
CC(C)[C@H](N)C(=O)OCOC(=O)c1ccccc1.O=C(O)C(F)(F)F		isotonic buffer	pH 7.4, 37 °C	0.14
Cc1ccc(OCCN(C)C)cc1C(=O)N[C@H](C)c1cc(-c2cnn(C)c2)cc(-c2cncs2)c1		mouse liver microsomes		26.3
CC[C@H](C)[C@@H]1NC(=O)[C@H](CC(N)=O)NC(=O)[C@@H]2CCCN2C(=O)[C@@H](NC(=O)[C@H](CC(N)=O)NC(=O)[C@@H](N)CCC(N)=O)COC(=O)[C@H](CCSC)NC(=O)[C@H](Cc2c[nH]c3ccccc23)NC(=O)[C@H](CCC(N)=O)NC(=O)CNC(=O)[C@H](Cc2ccccc2)N(C)C1=O		PBS with chymotrypsin	0.28 mM, pH 7.2, 37 °C, with: chymotrypsin 50 nM	> 1440
NC1CCN(C(=O)OC2CCCC3(C2)OOC2(O3)C3CC4CC(C3)CC2C4)CC1 (centres unmarked)		mouse liver microsomes		9
CC[C@H](C)[C@@H]1NC(=O)CNC(=O)[C@@H]2CSSC[C@@H]3NC(=O)[C@H](Cc4ccc(O)cc4)NC(=O)[C@@H](NC(=O)[C@H](CC(C)C)NC(=O)[C@H](CC(C)C)NC(=O)CN)CSSC[C@@H](C(=O)N4CCC[C@H]4C(=O)N[C@@H](CCCNC(=N)N)C(=O)N[C@@H](CCCNC(=N)N)C(=O)O)NC(=O)[C@H](CSSC[C@H](NC(=O)[C@H](Cc4c[nH]cn4)NC(=O)CNC(=O)[C@H](CCCCN)NC(=O)[C@H](CCCNC(=N)N)NC3=O)C(=O)N[C@@H](CCCCN)C(=O)N[C@@H](CCCNC(=N)N)C(=O)NCC(=O)N[C@@H](CCC(=O)O)C(=O)N[C@@H](CCCNC(=N)N)C(=O)N[C@@H](C(C)C)C(=O)N[C@@H](CCCNC(=N)N)C(=O)NCC(=O)N[C@@H]([C@@H](C)O)C(=O)N2)NC(=O)[C@H](Cc2ccc(O)cc2)NC(=O)[C@H](CC(C)C)NC(=O)[C@H](Cc2ccccc2)NC(=O)[C@H](CCCNC(=N)N)NC1=O		100% human serum	27 µM, 37 °C, heat-inactivated serum	> 2880
N=C(N)NCCC[C@H](NC(=O)CN)C(=O)N[C@@H](CCCCN)C(=O)N[C@@H](CCCCN)C(=O)N[C@@H](CCCNC(=N)N)C(=O)N[C@@H](CCCNC(=N)N)C(=O)N[C@@H](CCC(N)=O)C(=O)N1Cc2ccccc2C[C@H]1C(=O)N1[C@@H](C(=O)N[C@@H](CCCNC(=N)N)C(=O)N2CCC[C@H]2C(=O)N[C@@H](CO)C(=O)O)C[C@H]2CCCC[C@H]21		human plasma	500 µM, 37 °C	136
C[C@]12C(=O)[C@](C)(C(c3ccccc3)=C1c1ccccc1)C1(Br)C(=O)N(CCN)C(=O)C12 (some centres unmarked)	CO release, HPLC	TRIS-sucrose buffer	pH 7.4, 4 to 5 °C	1860
CC(COC(=O)c1ccccc1)OC(=O)C(N)Cc1ccccc1 (mixture of isomers)		isotonic buffer	pH 1.2, 37 °C	> 1800
C=CC1CN2CCC1CC2C(O)c1c(-c2ccc(N=Nc3ccccc3)cc2)cnc2ccc(OC)cc12 (centres unmarked)	reductive degradation	solution	cis isomer, with: 10 mM glutathione	143
COc1ccc2nc(C)cc(OCC(=O)Nc3ccccc3OC)c2c1		human liver microsomes		16.7
CC(COC(=O)c1ccccc1)OC(=O)C(N)C(C)C (mixture of isomers)		Caco-2 cell homogenate	pH 7.4, 37 °C, 500 µg/mL protein	~43
Cc1cccc(-c2nc(Nc3ccncn3)c3c(C)csc3n2)n1		human liver microsomes		11.5
[CH3][Ti+2][O]C(=O)c1ccc([S][Au][PH](c2ccccc2)(c2ccccc2)[c-]2cccc2)cc1.[Fe+2].c1cc[cH-]c1.c1cc[cH-]c1.c1cc[cH-]c1	NMR	DMSO-d6		1920

A few entries again:
SMILES	test	test system	conditions	half-life [min]
C[C@]12C(=O)[C@](C)(C(c3ccccc3)=C1c1ccccc1)C1(Br)C(=O)N(CCN)C(=O)C12 (some centres unmarked)	CO release, HPLC	TRIS-sucrose buffer	pH 7.4, 4 to 5 °C	1860
CC(=O)N[C@@H](Cc1ccc(O)cc1)C(=O)N[C@@H](CC(=O)O)C(=O)NCCC(=O)N[C@@H](Cc1ccccc1)C(=O)N[C@@H](Cc1ccc(O)cc1)C(=O)NCCC(=O)N[C@@H](Cc1ccc(O)cc1)C(=O)N[C@H](C(=O)N[C@H](C(=O)N[C@@H](Cc1ccccc1)C(=O)N[C@@H](Cc1c[nH]cn1)C(=O)N[C@H](C(=O)N[C@@H](C)C(=O)N[C@H](C(N)=O)[C@@H](C)O)C(C)C)[C@@H](C)O)C(C)C	LC-MS	human serum	10 µM, 37 °C	31.8
CCCCCc1cc(OC(=O)C(NC(=O)CCC(=O)O)C(C)C)c2c(c1)OC(C)(C)C1CCC(C)=CC21 (centres unmarked)		Cremophor RH 40 in isotonic phosphate buffer	pH 7.3, 25 °C	93600
CC(COC(=O)c1ccccc1)OC(=O)C(N)C(C)C (mixture of isomers)		Caco-2 cell homogenate	pH 7.4, 37 °C, 500 µg/mL protein	~43
